Published values of several laboratories.

SMILES	host	medium	route	dose	notes	bioavailability [%]
CC(=Nc1ccc(N)cc1)N(C)C	male Sprague-Dawley rat	plasma	oral	200 mg/kg		99.5
Cc1[nH]nc2c1N=C(c1ccccc1Cl)c1cnc(N3CCOCC3)cc1N2	male Sprague-Dawley rat	plasma	oral	5 mg/kg		57
N#Cc1ccnc(N2C(=O)CC[C@H]2C(=O)N(c2cncc(F)c2)[C@H](C(=O)NC2CC(F)(F)C2)c2ccccc2Cl)c1	Sprague-Dawley rat	plasma	oral	10 mg/kg		42
COc1cc(OC)c2c(=O)cc(-c3cc(C)c(OCCCN4CCN(C)CC4)c(C)c3)oc2c1	male Sprague-Dawley rat	plasma	oral	20 mg/kg	single dose	77.6
COC(=O)C1=CNC=C(C(=O)OC)C1c1ccc(F)c(C(F)(F)F)c1	male Sprague-Dawley rat	plasma	oral	50 mg/kg		44.1
O=c1c(-c2ccc(Cl)c(CN3CCOCC3)c2)coc2cc(O)ccc12	male Sprague-Dawley rat	plasma	oral	10 mg/kg		16
COC1C(c2ccc(Cl)c(Cc3ccc(OC4CCOC4)cc3)c2)OC(CO)C(O)C1O (centres unmarked)	Sprague-Dawley rat	plasma	oral	5 mg/kg		111
N#Cc1ccnc(N2C(=O)CC[C@H]2C(=O)N(c2cc(F)cc(F)c2)[C@H](C(=O)NC2CC(F)(F)C2)c2ccccc2Cl)c1 (stereo in doubt)	Sprague-Dawley rat	plasma	oral	10 mg/kg		44
CCC(CC)n1c(Cc2ccco2)nc2cc(C(=O)N[C@@H](CC(=O)O)c3ccccc3)ccc21	male Sprague-Dawley rat	plasma	intraperitoneal	10 mg/kg		61.4
Cc1cccc(Cn2ncc3c4cc(F)c(CN(C)C)cc4n(C)c3c2=O)n1	Sprague-Dawley rat	plasma	oral	10 mg/kg		33
CCC1(CC)CC(=O)N(C2c3cc(C(=O)NC4c5ccccc5CC4O)ccc3OC2(C)COC)C(=N)N1 (centres unmarked)	male Wistar rat	plasma	oral			26
C[C@@H](CO)NC(=O)c1cc(-c2ccc(Cl)cc2)nn(-c2cnn(C)c2)c1=O	male Wistar rat	plasma	oral			54
OCC1OC(n2cnc3c(NCc4ccc(Br)s4)ncnc32)C(O)C1O (centres unmarked)	male Sprague-Dawley rat	blood	oral			40 to 49
O=C(Nc1cc(-c2ccnc3[nH]ccc23)c(Cl)cn1)[C@H]1CCC[C@@H](NC(=O)C(F)(F)F)C1	rat	plasma	oral			16.5
CCC1(CC)CC(=O)N(C2CCOc3ccc(C(=O)NC4CC(C)(C)Oc5ccccc54)cc32)C(=N)N1 (centres unmarked)	male Wistar rat	plasma	oral			20.7
CN1CCC[C@@H]1C(=O)N[C@@H](Cc1ccc(-c2ccccc2)cc1)B(O)O	male Sprague-Dawley rat	plasma	oral	1 mg/kg		50
Cc1cc2c(cc1O)C=C1C=CC(=O)C(C)(C)[C@H]1CC2	male Sprague-Dawley rat	plasma	oral	20 mg/kg		0.75

Repeated from above:
SMILES	host	medium	route	dose	notes	bioavailability [%]
COc1cc(OC)c2c(=O)cc(-c3cc(C)c(OCCCN4CCN(C)CC4)c(C)c3)oc2c1	male Sprague-Dawley rat	plasma	oral	20 mg/kg	single dose	77.6
Cc1cc2c(cc1O)C=C1C=CC(=O)C(C)(C)[C@H]1CC2	male Sprague-Dawley rat	plasma	oral	20 mg/kg		0.75
